Published values of several laboratories.
Lines come from different studies, so protocols differ. In brackets after ≈: the same amount, converted by molar mass.

technique	medium	time	pH	temperature	endpoint	value	SMILES
	PBS		pH 7.4		thermodynamic solubility	1210 µM	CCN(CC)CC#CCNc1ccnc2cc(Cl)ccc12
	FaSSIF	24 h		37 °C	thermodynamic solubility	4 µg/mL	CCC/C(=C\C1=C(C(F)(F)F)C(=O)c2ccccc2C1=O)C(=O)N(CC)CC
	PBS	2 h	pH 7.4		kinetic solubility	172 µM (≈ 92.8 µg/mL)	COc1ccc(CNC[C@@](O)(COCc2ccc(F)cc2)[C@@H]2CC[C@@H](C)C[C@H]2OCc2ccc(F)cc2)cc1
	FeSSIF	24 h		37 °C	thermodynamic solubility	603 µg/mL	CCC/C(=C\C1=C(OC)C(=O)c2ccccc2C1=O)C(=O)NOC
	water				kinetic solubility	> 250 µM	Cc1ccc(NCC(=O)Nc2ccc(F)cc2)cc1S(=O)(=O)N1CCOCC1
	PBS	2 h	pH 7.4		kinetic solubility	0.6 µM (≈ 0.295 µg/mL)	C[C@@H]1CC[C@@H]([C@@](O)(CNCc2ccccc2F)COCc2ccccc2)[C@H](OCc2ccccc2)C1
	water				kinetic solubility	20 µM (≈ 7.91 µg/mL)	Cc1ccc(NCC(=O)NC2CCCCC2)cc1S(=O)(=O)N1CCOCC1
absorbance	aqueous buffer		pH 5		solubility	> 42 µg/mL	OC(CN1CCC2(CC1)CC(O)c1ccc3ccccc3c1O2)c1ccc(F)c(F)c1 (centres unmarked)
	water				kinetic solubility	> 250 µM	Cc1ccc(NCC(=O)Nc2ccc(F)c(Cl)c2)cc1C(=O)N1CCOCC1
	methanol	24 h			solubility	28000 µM	Cc1c(-c2ccc(Cc3ccc(OC(F)(F)F)cc3)cc2)[nH]c2cccc(F)c2c1=O
	water				thermodynamic solubility	360 µg/mL	CN1CC[C@H](c2c(O)cc(O)c3c(=O)cc(/C=C/c4c(Cl)cccc4Cl)oc23)[C@H](O)C1.O=C(O)CNC(=O)c1ccccc1
	PBS	2 h	pH 7.4		kinetic solubility	2.2 µM (≈ 1.07 µg/mL)	C[C@@H]1CC[C@@H]([C@@](O)(COCc2ccccc2)Cn2cnc3ccccc32)[C@H](OCc2ccccc2)C1
	aqueous buffer		pH 6.8		thermodynamic solubility	13 µg/mL	CCC/C(=C\C1=C(F)C(=O)c2ccccc2C1=O)C(=O)N(CC)CC
	PBS	2 h	pH 7.4		kinetic solubility	1.6 µM (≈ 0.806 µg/mL)	COc1ccccc1CNC[C@@](O)(COCc1ccccc1)[C@@H]1CC[C@@H](C)C[C@H]1OCc1ccccc1
	water				kinetic solubility	180 µM (≈ 82.1 µg/mL)	Cc1ccc(NCC(=O)N(C)c2ccc(F)c(Cl)c2)cc1S(=O)(=O)N1CCOCC1
	PBS	2 h	pH 7.4		kinetic solubility	3.7 µM (≈ 1.22 µg/mL)	C[C@@H]1CC[C@@H]([C@@](C)(O)Cn2ccnc2)[C@H](OCc2ccccc2)C1
	water				kinetic solubility	> 250 µM	Cc1ccc(NCC(=O)NC2CCC(F)(F)CC2)cc1S(=O)(=O)N1CCOCC1
